# Published values of several laboratories.
# Lines come from different studies, so protocols differ. ± gives the spread as reported.
Structure (SMILES),target or system,test,system,setting,endpoint,value
Cc1nc([C@H](NC(=O)c2ccc(-c3ccc(Cl)cc3)[nH]2)[C@H]2CCCCN2)sc1CO,U87.CD4.CXCR4,"cell growth or viability, XTT",,,CC50,~20 µM
CN[C@](C)(C[18F])C(=O)O,SK-OV-3 tumour model,,"host not given, bone","2 h, tumour-bearing",tracer uptake,2 %ID/g
COc1ccc(CNc2nc(N3CCC[C@H]3CO)ncc2C(=O)NN)cc1Cl,Salmonella typhimurium,,TA100,"125 µg/plate, 48 h",revertant count,143 ± 15
O=C(O)CCC(NP(=O)(O)OCCC[C@@H](NC(=O)CCC(NC(=O)CCCCCNC(=O)c1ccc([18F])cc1)C(=O)O)C(=O)O)C(=O)O (some centres unmarked),CWR22Rv1 tumour model,,"host not given, spleen","intravenous, 1 h, tumour-bearing",tracer uptake,1.02 %ID/g
CCC(=O)N(C)c1ccc(Cl)c(Cl)c1,Salmonella typhimurium,Ames test,TA98,"0.05 mg/plate, without S9",revertants,28 ± 8.1 revertants/plate
COc1cc(C(=O)NCCOCCOCCOCCNC(=O)c2ccc([18F])nc2)ccc1NC(=O)C1NC(CC(C)(C)C)C(C#N)(c2ccc(Cl)cc2F)C1c1cccc(Cl)c1F (centres unmarked),HepG2 tumour model,,"host not given, spleen","2 h, tumour-bearing",tracer uptake,0.79 %ID/g
CN(C)CC1CCCCC1(O)c1cccc(O)c1 (centres unmarked),Caco-2 TC7 monolayer,,,"10 µM, 3 h, apical pH 6.8, basolateral pH 7.4",Papp A-to-B,6.5 ± 0.3 ×10⁻⁶ cm/s
C[C@@](O)(C(F)F)[C@H](NC(=O)c1ccc(C#CC#CC2CC2)cc1)C(=O)NO,,,"dog, plasma","intravenous, 100 mg/kg",AUC(0-inf),141 µg·h/mL

# Some of these lines once more:
Structure (SMILES),target or system,test,system,setting,endpoint,value
Cc1nc([C@H](NC(=O)c2ccc(-c3ccc(Cl)cc3)[nH]2)[C@H]2CCCCN2)sc1CO,U87.CD4.CXCR4,"cell growth or viability, XTT",,,CC50,~20 µM
